Experimental data collected from several papers.
Parts stem from different laboratories: compare values within a part only. Substitutions count along the parent as printed.

Series 1 — technique: protein-binding microarray; molecule type: double-stranded DNA, one strand shown; sample: in vitro; tested at: 250 nM; setting: 60-bp whole probe; added: salmon DNA 0.4 mg/ml; relative to: random background probes; reading: higher = stronger binding; all sequences stand within: GCCTAGCAC … GTCTTGATTCGCTTGACGCTGCTG
Target: Interferon regulatory factor 7, full length, phosphomimetic (IRF7, Homo sapiens, UniProt Q92985, residues 1-503, S101K/S471D/S472D/S475D/S476D/S477D/S483D/S484D/S487D)
Sequence of UniProt Q92985 (whole entry, unmodified, looked up): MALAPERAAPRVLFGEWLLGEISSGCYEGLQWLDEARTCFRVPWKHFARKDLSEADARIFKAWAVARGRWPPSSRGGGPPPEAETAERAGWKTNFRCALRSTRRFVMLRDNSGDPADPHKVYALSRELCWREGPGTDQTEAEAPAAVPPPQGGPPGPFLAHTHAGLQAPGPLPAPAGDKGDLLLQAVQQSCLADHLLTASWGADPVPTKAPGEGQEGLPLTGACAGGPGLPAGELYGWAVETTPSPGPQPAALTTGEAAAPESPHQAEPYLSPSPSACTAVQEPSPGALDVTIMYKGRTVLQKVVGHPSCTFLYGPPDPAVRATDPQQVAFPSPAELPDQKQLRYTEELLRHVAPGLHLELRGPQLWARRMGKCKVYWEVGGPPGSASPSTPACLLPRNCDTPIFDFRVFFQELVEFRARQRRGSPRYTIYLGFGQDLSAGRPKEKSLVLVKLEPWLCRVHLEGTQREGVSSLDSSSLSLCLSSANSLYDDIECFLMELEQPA
Strand | log fluorescence
TTAGGTTTCGGACTGTGTTAGTGCTAG | 5.19 z-score
GACGGTTTCGGGACTGGGGAGGTGCTA | 4.17 z-score
GACGGTATCGACTCTCGGGACGTGCTA | 0.856 z-score
TCAATGTTCCCTATTTAACTGTGCTAG | 3.39 z-score
TTAGATATCGGATATCGATTAGTGCTA | 0.358 z-score
TTCATTATTGTTTCCTCTTTGTGCTAG | 1.59 z-score
CTTTCTTTATGCACTCTTTACGTGCTA | 2 z-score
CTGCTGGCCTGTTGCTGGAAGTGCTAG | -1.22 z-score
GACGGTTCTCTTTTCCTGACGTGCTAG | 1.6 z-score

Series 2 — technique: RNA Bind-n-Seq; molecule type: RNA; sample: in vitro; tested at: 365 nM; relative to: no-protein control; reading: higher = stronger binding
Target: RNA binding protein fox-1 homolog 2, RRM domain, GST-SBP tag (RBFOX2, Homo sapiens, UniProt O43251-10, residues 100-194)
Setting: natural RNA segment, single round, ends assumed
All sequences stand within: GGGAGUUCUACAGUCCGACGAUC … UGGAAUUCUCGGGUGCCAA
Construct (chain): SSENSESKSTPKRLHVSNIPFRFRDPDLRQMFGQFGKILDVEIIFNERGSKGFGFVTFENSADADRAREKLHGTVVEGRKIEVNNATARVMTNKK
Strand | RBNS enrichment (R)
UUUCAGUAGUUUGAUCAGUUGAAGGCUAGAAGUGUGAAGUGCAGAUGAGUGUGUGUUCUUCCCCAAGGUCCCCCCACAGCUCCAGGACACCGCUGUCCUGGCAUUUGUGG | 0.664
UAGAGCUCCUGAGGUACUGUUCCAGUGAGGGGCAUUAUGAGAGGAGCGGGGCAGCCCAGGAGGUCUCAUACCCCACCCGUAAUCUGUACAGACUGAGAGGCCAGUUGAUC | 0.22
AACAAGGCCUGGUCCUAGCAAACCUUAGCAUAUCUUCCCUUUUUAUUAUAAAUGGGUGGUUGUUUGGUUUGUUUAUUUUUAUAAUUUUUACUGAUGCUCAGUAACCAUGA | 0.524
GUAUAUAAUAUUUAAGAUGCUGAGUAUUUCAUAGGAAAGCUGAAUGCUGCUGUAAAGUGCUCUUUAAGUCUUUUUUUUUUUUAAUCCCCUUCUAAUGAAUGAAACUAGGG | 1.38
CAGAAUCAACUCAGCCUCAGGCAUCCAAAGCCACACCACAGUCGGUGGUGAUGCAACUGGGGGCUUACUCUGAGGAAACCUAGGAAAUCUCGGUGCACUAGGAAGUGAAU | 0.262
ACAGGUGCGUCUGUCUAUAUGUCUGGGUUCUUGUCUUUUGUGGUCUGUUUGUCUUUUCUACCUCUUUCUCUUGCAGUGAUAGACUGAGGGGGUAAAAUCAAGAGAAAAAA | 0.705
UAGUAUAAUGAUGGUCUUGGAUUGUCUGACCUCAGUAGCUAUUAAAUAACAUCAAGUAACAUCUGUAUCAGGCCCUACAUAGAACAUACAGUUGAGUGGGAGUAAACAAA | 0.411
UGCAAGCCUUUGUCCGGCACGUGCAGAGUAGGGCGCCGACUGCUGUCUACCUGCUGCUCCUACCAACCUGCACUGCAGCCUGGGUAGAGGGCGCUGCCACCACAAGGCCA | 0.234
UAGACCCCUGGAUGUGACUCUUCUUUUUAAAAGGAAACUAUGUGGAGGACGAUGCAAAAACAUAUUUAUCUUAGUUUGCUCUGCUGUAGUUCUGUUAUUUAUACUUGGUG | 0.722

Series 3 — technique: DHFR PCA, deep sequencing; sample: yeast; added: (+)-ABA 0 µM; relative to: wild-type fitted maximum; reading: higher = stronger binding
Target: ABI1, truncated, D143A, DHFR fusion (Arabidopsis thaliana)
Setting: methotrexate growth selection, single substitutions
Starting sequence: PYL1, truncated, DHFR fusion (Arabidopsis thaliana); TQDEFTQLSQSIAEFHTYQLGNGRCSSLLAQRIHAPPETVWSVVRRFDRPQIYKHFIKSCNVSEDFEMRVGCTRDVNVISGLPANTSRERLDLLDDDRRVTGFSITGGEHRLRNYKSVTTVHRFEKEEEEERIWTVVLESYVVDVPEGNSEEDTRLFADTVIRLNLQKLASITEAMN; partner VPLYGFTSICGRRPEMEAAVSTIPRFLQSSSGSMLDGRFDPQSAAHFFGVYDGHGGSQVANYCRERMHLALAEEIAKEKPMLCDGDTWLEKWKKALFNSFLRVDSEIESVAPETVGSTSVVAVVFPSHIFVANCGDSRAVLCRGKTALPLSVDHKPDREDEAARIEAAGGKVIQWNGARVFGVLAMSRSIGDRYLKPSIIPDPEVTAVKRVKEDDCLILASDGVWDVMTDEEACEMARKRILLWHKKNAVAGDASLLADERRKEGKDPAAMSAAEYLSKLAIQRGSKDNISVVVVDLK
Variant | relative binding score [%]
Q7F | 22.2
L28V | 48.1
A35I | 0.171
I105M | 5.96
Q19M | 9.95
D65T | 5.16
I133Q | 32.4

Further values, each from its own experiment
Molecule | target | test | system | conditions | scale | quantity | value
PhoQ, residues 284 288 289 292 302 303 TYGVAM | PhoP, residues 12 14 15 18 19 GHCSL (Escherichia coli, UniProt P23836) | Sort-seq, refers to: YFP reporter | E. coli | PhoQ-PhoP variant library, added: 10 µM Mg2+ | relative to: high Mg2+ state, higher = stronger signaling | fold induction | 18.2

Repeated from above (series 1):
Strand | log fluorescence
CTTTCTTTATGCACTCTTTACGTGCTA | 2 z-score
